Results pooled from the literature.
A part holds a random share of what one study measured. Positions count from the first letter of the parent shown.

Set 1
Target: CCNA2, cyclin fold, Cln2 fusion (human)
Technique: yeast growth competition, sequencing
Matrix: yeast
Setting: strong parent motif
Reference: not given
Direction: higher = stronger binding
Starting sequence: CDKN1A docking peptide (human); SKACRRLFGPVDS
Change	normalised enrichment score
STACRRLFGPVDS [K2T]	5.25
SKACRALFGPVDS [R6A]	4.33
SKACRRLFGPFDS [V11F]	5.43
SKACRPLFGPVDS [R6P]	1.04
SKACRRLFGPVNS [D12N]	5.43
SKAERRLFGPVDS [C4E]	0.245
SKACRRLHGPVDS [F8H]	0.732
SKACRRKFGPVDS [L7K]	0.747
SKAIRRLFGPVDS [C4I]	3.57
SKACRRLGGPVDS [F8G]	0.482
SKAKRRLFGPVDS [C4K]	6.06
SKACRRSFGPVDS [L7S]	0.225
SKFCRRLFGPVDS [A3F]	3.26
SKACRRQFGPVDS [L7Q]	0.723
SKACRRLFGPVYS [D12Y]	5.29
SKACRRLFGPADS [V11A]	6.17
SKACRRLFIPVDS [G9I]	5.37
SKACRRLFDPVDS [G9D]	5.4
SKACFRLFGPVDS [R5F]	0.386
SKACRRGFGPVDS [L7G]	0.195
SKACIRLFGPVDS [R5I]	1.87
SKACRRNFGPVDS [L7N]	0.678
SKACWRLFGPVDS [R5W]	0.744
SKACRRLFGPDDS [V11D]	6.33
SKACRRYFGPVDS [L7Y]	0.878

Set 2
Target: Protein C-ets-1 (ETS1, Homo sapiens, UniProt P14921, residues 1-441, K379A, full length assumed)
UniProt P14921, sequence (whole entry, unmodified, looked up): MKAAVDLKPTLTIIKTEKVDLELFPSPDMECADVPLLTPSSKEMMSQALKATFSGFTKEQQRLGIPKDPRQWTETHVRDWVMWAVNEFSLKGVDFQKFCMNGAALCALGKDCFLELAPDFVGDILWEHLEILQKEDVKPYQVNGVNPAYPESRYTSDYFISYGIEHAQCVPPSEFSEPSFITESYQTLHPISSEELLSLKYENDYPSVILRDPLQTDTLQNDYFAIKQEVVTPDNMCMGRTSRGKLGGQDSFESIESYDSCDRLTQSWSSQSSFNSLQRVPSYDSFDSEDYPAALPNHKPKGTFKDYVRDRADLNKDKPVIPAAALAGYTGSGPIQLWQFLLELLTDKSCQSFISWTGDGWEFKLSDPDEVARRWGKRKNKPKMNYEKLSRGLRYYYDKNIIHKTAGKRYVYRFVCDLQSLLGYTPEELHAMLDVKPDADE
Technique: protein-binding microarray
Molecule type: double-stranded DNA, one strand shown
Matrix: in vitro
Tested at: not given
Setting: k-mer, scored over probes, only values ≥0.25
Direction: higher = stronger binding
Oligonucleotide	E-score
ACCGGACC	0.295
CGGTAACG	0.274
CCGGGACC	0.342
CCCCTCCA	0.271
CGCCGGCA	0.303
CCGGTAAG	0.422
CACACCGG	0.338
ATATGATA	0.323
ACCCACCC	0.333
CTGTCGGA	0.292
GTGCCGGA	0.288
CCGGGAGG	0.343
CCGGATTA	0.264
ATGCCGGC	0.271
TATCAACA	0.283
AAATGGTG	0.264
CCCCGCCC	0.367
CGAATATA	0.261
GCGACACC	0.29
CCACCGGA	0.375
ACGCGTCG	0.282
AGAACCGG	0.346
ACATATCA	0.259
ATCATATA	0.278
GCGCCGGA	0.254

Set 3
Target: Histone acetyltransferase KAT6A, winged helix 2, GST fusion (KAT6A, Homo sapiens, UniProt Q92794, residues 85-181)
Technique: protein binding microarray
Molecule type: double-stranded DNA, one strand shown
Matrix: in vitro
Tested at: not given
Setting: 8-mer, flanks averaged, mean of 2 arrays, mostly near background
Reference: not given
Direction: higher = stronger binding
Target sequence (chain): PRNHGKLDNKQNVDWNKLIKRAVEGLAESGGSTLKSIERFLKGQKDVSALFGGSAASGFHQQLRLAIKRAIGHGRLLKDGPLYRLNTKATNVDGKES
Oligonucleotide	E-score
AGTGTACC	-0.208
CGTCAGGA	-0.054
CCCCTAAC	-0.0469
CGCCTGAA	0.2
GTTGGTGA	0.081
CGTTTCCA	-0.148
AGATCGCG	0.122
ATTAGACC	-0.221
CTAGTCAC	-0.0624
CTTACCTC	-0.105
AAGATGTC	-0.232
AATGTCAA	-0.0785
CGGGTAGA	-0.0572
AATTGTCG	-0.0459
AGTGGCCC	-0.0247
AATTTTAC	0.0813
TAAAAGTA	-0.0901
ACGGGTCA	-0.035
CCTGGACC	0.0553
ACAGTCCC	-0.223
AAAAGTGA	-0.044
GCACATTA	-0.119
ATTTGATG	0.0714
AGATACTC	-0.104
GGTTCTAC	-0.111

Set 4
Target: Sal-like protein 4, full length isoform B (SALL4, Homo sapiens, UniProt Q9UJQ4-2, residues 1-616)
Technique: universal PBM
Molecule type: double-stranded DNA, one strand shown
Matrix: in vitro
Tested at: not given
Setting: 8-mer, flanks averaged, mean of replicates
Direction: higher = stronger binding
Oligonucleotide	E-score
CGACTGGA	-0.198
AGCGTCAC	-0.216
CGTGCCTC	-0.171
ATTCCCCG	-0.0193
ATCGGTAA	0.122
ACAGTCCG	-0.0733
AGGAAGAT	-0.0377
ATTCGTGG	-0.0599
AGGAAAGA	0.0872
CCGTCCAC	-0.22
ACCCTGCC	-0.276
TAGAGCTA	-0.0628
CACCCTCC	-0.272
AACCGCTC	-0.149
GCATTCAC	0.0712
CCCTAGCA	-0.168
ACTTGAGG	-0.139
GGATGTAC	0.0671
GCCTAAGC	-0.17
TAAAAAGA	0.259

Set 5
Target: RNA binding protein fox-1 homolog 2, RRM domain, GST-SBP tag (RBFOX2, Homo sapiens, UniProt O43251-10, residues 100-194)
Technique: RNA Bind-n-Seq
Molecule type: RNA
Matrix: in vitro
Tested at: 365 nM
Setting: natural RNA segment, single round, ends assumed
Reference: no-protein control
Direction: higher = stronger binding
All sequences stand within: GGGAGUUCUACAGUCCGACGAUC … UGGAAUUCUCGGGUGCCAA
Construct (chain): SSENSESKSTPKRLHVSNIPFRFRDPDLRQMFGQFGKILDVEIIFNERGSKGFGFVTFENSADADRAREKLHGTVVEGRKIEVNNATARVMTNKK
Oligonucleotide	RBNS enrichment (R)
GGACAUUCAUGCUCAGUACUUAAGGGAAUAUGCAUUGUCUGCAAUGGUGACUGAUUUCAAAUCAUGUUUUUUCUGCAAUGACUGUGGAGUUCCAUUCUUGGCAUCUACUC	0.33
AAAAUAAUAGUUUUAGUGAGGAUGGUGCUGAGUAAACAUAAAAACUGAUUUGCUCUCAGCUGAUGUGUCCUGUACACAGUGGGAAGAUUUUAGUUCACACUUAGUCUAAC	0.416
CUAGUAACUGCCUCUGGACUCGGAACAGUGAGUAGGAUCAAAAUAAAUACUGUACAUGGUGGGGAAUGGAAUGCCUGUUGGAGAAGCUUCUAGCCAAUCACGCUCUGGAC	1.17
GAUCUCAGGCAGCGCUGUUUCCUGUGAAGAAAAAAAAAGUGUAUAUAUCCAUAGAUAUAGUACUUUGUCUUGUCAGGAGGUGGAAACCGAAAUAAAUUAUCUUUUAAAAA	0.217
AUGCCUACCUACUGAGGCGCCUUCUCUUUUUAUUCUUGAGCCAAUGAGAUAUCAGUGUGUUUAUUAAUAAGGAUUGCAAUAGUAUAGUGCUUAAUAUGUGCCAGGCAUAG	0.248
CGUUUUUUUGUUCUGUUUCGUUUUUCAAAAUAAUGCUUUUUGCAAAAGAGGUAAGACUGAGACUAAAGGUGUUAUCUUCUGGUGUGCUCCUGGAAGUGUCUACCCUACAU	0.446
CUCAGGUGCAGCCAUGACUCCCCACUCUGUGCAUUCCACCUUCCAGUUGUUUUUCUCUGAGGGGGUAGUGGGGGGGUCAGCAUGAUUAUAUUUUAAUGUAGAAAAUGUGA	1.53
UUUUUCUUUUUAUUUUCGAAGGCUUUGUUUUGGUUUCUUAGGUUAAGAUGCUCUCGAGCGUUGAGCAGGCACAGCUCUGUCGAGGUCCCUGUCCCCCACCUGUGGUUCUG	0.565
GACAGGCCUGGCCUCACACGCCAGAUCCAAAAUGUUGACCUGGACAAUCUGUCCCUGGUGCCCAUGCAGGAGAAACCCUGAGACACAGAAGAGAAUUGCAGGGUCUUCUG	0.311
AGAAACCCCUCCACAUCCCCGAGGCAGCCCGAUGGCUUCCAGGGUGGCUCGGGCAAGUGGAAGCACGUGGAGUCAGACAGACCUAAGUCCCAGGCCCAGAUUAGCCACUC	7.19
GGGAACGAGAAAACUGCUGUUCGUUUGUAUUUGUGAACUUGGCUGUAAUCUGGUAUGCCAUAGGAUGUCAGAUAAUACCACUGGUUAAAAUAAAGCCUAGUUUUCAAAUU	0.723
CCAUAGGUCUGAAUCUCUUAAGAAUUCUCAGUCUCUCUGGGAUGUAGGGCGCAUUAUAAAUGCAUUAAUCCUUAUAGUCAAUCCUGUGCCUAGGAUUUUGCAAGGGAACA	0.306

Set 6
Target: TAR DNA-binding protein 43, full length, His tag (TARDBP, Homo sapiens, UniProt Q13148, residues 1-414)
Technique: RNA Bind-n-Seq
Molecule type: RNA
Matrix: in vitro
Tested at: 20 nM
Setting: 6-mer, flanks averaged, single round
With: 150 mM LiCl
Reference: input library
Direction: higher = stronger binding
Oligonucleotide	6-mer enrichment (R)
CGAUAC	0.808
UCCUUA	0.93
UUAUUG	1.13
CACGUA	0.877
CAUCCC	0.981
CACACA	0.894
GCCAAU	0.917
AAGAAA	0.862
UACAUU	0.914
UUAAUU	1.08
GGAGUC	0.963
GCCAGC	0.982
UGGAUC	0.957
GGGUAG	1.23
ACGAUC	0.796
AUUACU	0.887
GGAUGU	1.24
GGGCGU	1.15

Some of these lines once more (set 4):
Oligonucleotide	E-score
CGTGCCTC	-0.171
ATTCCCCG	-0.0193
ATCGGTAA	0.122
ACAGTCCG	-0.0733
AGGAAGAT	-0.0377
ATTCGTGG	-0.0599
AGGAAAGA	0.0872
CCGTCCAC	-0.22
ACCCTGCC	-0.276
TAGAGCTA	-0.0628
CACCCTCC	-0.272
AACCGCTC	-0.149
GCATTCAC	0.0712
CCCTAGCA	-0.168
ACTTGAGG	-0.139
GGATGTAC	0.0671
GCCTAAGC	-0.17
